Published values of several laboratories.
± gives the spread as reported.

| SMILES | organism | test | test system | conditions | how to read | endpoint | value |
| --- | --- | --- | --- | --- | --- | --- | --- |
| C=CCC1=C[C@]2(C[C@H](O)C(C)(C)O2)C2=C(C[C@H]3C[C@H]4C(=C)CCCC(C)(C)[C@@H]4C[C@@]3(C)O2)C1=O | coxsackievirus B3 | cytopathic effect | Vero, Nancy |  | reference: CC50 over IC50 | selectivity index | 1.7 |
| N#Cc1ccc(-c2ccc(-c3cccs3)s2)cc1 | Salmonella typhimurium | liquid broth OD | TA1535 | 25 µM, 15 h | reference: growth | viability | 110 ± 5.6% |
| Cc1cc(/C=C/C#N)cc(C)c1Oc1nc(NC2CCN(Cc3ccc(S(N)(=O)=O)cc3)CC2)nc2ncccc12 | HIV-1 |  | TZM-bl, NL4-3 wild type |  | reference: CC50 over EC50 | selectivity index | > 7900 |
| COc1ccc(S(=O)(=O)N(CC(F)(F)F)c2cnc(N(CC(=O)O)S(=O)(=O)c3ccc(OC)cc3)c3ccccc23)cc1 | Salmonella typhimurium | mini-Ames test | TA98 and TA100 | 100 µM, 90 min, added: S9 liver fraction | reference: vehicle control | revertant increase | > 2 fold |
| Fc1ccc2c(c1)c1nc3ccc(Br)cc3c-1cn2Cc1cn(-c2ccccc2I)nn1 | Giardia duodenalis |  |  |  | reference: Caco-2 CC50 over Giardia IC50 | selectivity index | 37.2 |
| N=C(N)c1ccc(-c2ccc(-c3cccs3)s2)cc1 | Salmonella typhimurium | liquid broth OD | TA1535 | 50 µM, 15 h | reference: growth | viability | 64.5 ± 4.8% |
| Cc1cc(C#N)cc(C)c1Oc1nc(NC2CCN(Cc3ccccn3)CC2)nc2ccccc12 | HIV-1 |  | TZM-bl, NL4-3 wild type |  | reference: CC50 over EC50 | selectivity index | > 15.9 |
| C=CCC1=C[C@@]2(C[C@@H](O)C(C)(C)O2)C2=C(C[C@@H]3C[C@H]4[C@H](C[C@]3(C)O2)C(=C)CCCC4(C)C)C1=O | coxsackievirus B3 | cytopathic effect | Vero, Nancy |  | reference: CC50 over IC50 | selectivity index | 5.6 |
| N=C(N)c1ccc(-c2ccc(-c3cccs3)o2)cc1 | Salmonella typhimurium | liquid broth OD | TA1535 | 100 µM, 15 h | reference: growth | viability | 94.7 ± 6.5% |
| Cc1ccc(CN2CCC(Nc3nc(Oc4c(C)cc(C#N)cc4C)c4ccccc4n3)CC2)cc1 | HIV-1 |  | TZM-bl, NL4-3 wild type |  | reference: CC50 over EC50 | selectivity index | > 22.7 |
| COc1ccc(CNc2nc(N3CCC[C@H]3CO)ncc2C(=O)NN)cc1Cl | Salmonella typhimurium | Ames test | TA98, TA100, TA1535, TA102, TA97a | 62.5 to 1000 µg/plate, with and without S9 |  | mutagenicity | negative |
| Cc1cc(C#N)cc(C)c1Oc1nc(NC2CCN(Cc3ccc(C(N)=O)cc3)CC2)nc2cccnc12 | HIV-1 |  | TZM-bl, NL4-3 wild type |  | reference: CC50 over EC50 | selectivity index | 25400 |
| N#Cc1ccc(-c2ccc(-c3cccs3)o2)nc1 | Salmonella typhimurium | liquid broth OD | TA1535 | 12.5 µM, 15 h | reference: growth | viability | 135 ± 12.4% |
| COC(=O)c1ccc(CN2CCC(Nc3nc(Oc4c(C)cc(C#N)cc4C)c4ccccc4n3)CC2)cc1 | HIV-1 |  | TZM-bl, NL4-3 wild type |  | reference: CC50 over EC50 | selectivity index | > 8.45 |
| N#Cc1ccc(-c2ccc(-c3ccco3)o2)cc1 | Salmonella typhimurium | liquid broth OD | TA1535 | 50 µM, 15 h | reference: growth | viability | 108 ± 7.6% |

Some of these lines once more:
| SMILES | organism | test | test system | conditions | how to read | endpoint | value |
| --- | --- | --- | --- | --- | --- | --- | --- |
| N=C(N)c1ccc(-c2ccc(-c3cccs3)o2)cc1 | Salmonella typhimurium | liquid broth OD | TA1535 | 100 µM, 15 h | reference: growth | viability | 94.7 ± 6.5% |
